Assay results of several laboratories.
Every numbered part comes from another study and shows a few of its results, in no order. Substitutions count along the parent as printed.

Series 1 — technique: DHFR PCA, deep sequencing; medium: yeast; with: (+)-ABA 710 µM; relative to: wild-type fitted maximum; direction: higher = stronger binding
Target: ABI1, truncated, D143A, DHFR fusion (Arabidopsis thaliana)
Setting: methotrexate growth selection, single substitutions
Starting sequence: PYL1, truncated, DHFR fusion (Arabidopsis thaliana); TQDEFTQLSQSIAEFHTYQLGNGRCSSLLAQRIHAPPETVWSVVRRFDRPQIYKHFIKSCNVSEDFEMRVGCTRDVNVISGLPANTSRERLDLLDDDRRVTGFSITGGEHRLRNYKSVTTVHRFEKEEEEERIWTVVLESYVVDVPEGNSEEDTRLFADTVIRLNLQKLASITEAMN; partner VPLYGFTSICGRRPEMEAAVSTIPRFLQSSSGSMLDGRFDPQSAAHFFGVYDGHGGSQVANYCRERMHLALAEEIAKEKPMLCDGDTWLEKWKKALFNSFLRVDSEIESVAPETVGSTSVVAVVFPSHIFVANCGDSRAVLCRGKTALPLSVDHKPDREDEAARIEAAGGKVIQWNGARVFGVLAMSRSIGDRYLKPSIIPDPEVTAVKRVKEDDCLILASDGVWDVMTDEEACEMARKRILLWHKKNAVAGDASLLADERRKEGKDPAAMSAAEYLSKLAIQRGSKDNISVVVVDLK
For `I52A`, “relative binding score” read 108%.
Under “relative binding score”, `S59F` is recorded as 93.6%.
`L8R` — result for “relative binding score”: 91.8%.
`H122G`: “relative binding score” 64.2%.
`D153Q`: “relative binding score” 86.7%.
`H16G`: “relative binding score” 23.3%.
`R32S`: “relative binding score” 92.2%.
`H110Y`: “relative binding score” 14.5%.
Under “relative binding score”, `Q7R` is recorded as 108%.
`R99E` — result for “relative binding score”: 67.6%.

Series 2 — target: CCND1, cyclin fold, Cln2 fusion (human); technique: yeast growth competition, sequencing; medium: yeast; setting: weak parent motif; relative to: not given; direction: higher = stronger binding
Starting sequence: RB1 docking peptide (human); PKPLKKLRFDIEG
Under “normalised enrichment score”, `PKGLKKLRFDIEG [P3G]` is recorded as 0.467.
For `PKPMKKLRFDIEG [L4M]`, “normalised enrichment score” read 0.219.
`DKPLKKLRFDIEG [P1D]` — result for “normalised enrichment score”: 1.49.
For `PKPLKKLRFAIEG [D10A]`, “normalised enrichment score” read 0.131.
`PKPLKKLPFDIEG [R8P]`: “normalised enrichment score” 0.564.
For `PKPLKKLRFFIEG [D10F]`, “normalised enrichment score” read 0.637.
Under “normalised enrichment score”, `PKPCKKLRFDIEG [L4C]` is recorded as 0.41.
Under “normalised enrichment score”, `PKPLKKCRFDIEG [L7C]` is recorded as -0.0286.
For `PKPWKKLRFDIEG [L4W]`, “normalised enrichment score” read -0.202.
For `PKPLKKLAFDIEG [R8A]`, “normalised enrichment score” read -0.0153.
For `PKPLKKLRFDIYG [E12Y]`, “normalised enrichment score” read 0.241.
`PKPLKKLRFDIEP [G13P]`: “normalised enrichment score” 0.0294.
For `PKELKKLRFDIEG [P3E]`, “normalised enrichment score” read 0.395.
Under “normalised enrichment score”, `PKPLRKLRLDIEG [K5R F9L]` is recorded as -0.326.
`PKPLKKLRFDIFG [E12F]` — result for “normalised enrichment score”: 0.46.
`PKPLKKLRFCIEG [D10C]` — result for “normalised enrichment score”: -0.287.
`PKPLKKLRWDIEG [F9W]` — result for “normalised enrichment score”: -0.283.

Series 3 — technique: RNA Bind-n-Seq; molecule type: RNA; medium: in vitro; concentration: 1 µM; setting: whole 134-nt RNA, ends assumed; with: 150 mM KCl; relative to: input library; direction: higher = stronger binding
Target: Ras GTPase-activating protein-binding protein 1, C-terminal RGG region (G3BP1, Homo sapiens, UniProt Q13283)
Chain of UniProt Q13283 (whole entry, looked up): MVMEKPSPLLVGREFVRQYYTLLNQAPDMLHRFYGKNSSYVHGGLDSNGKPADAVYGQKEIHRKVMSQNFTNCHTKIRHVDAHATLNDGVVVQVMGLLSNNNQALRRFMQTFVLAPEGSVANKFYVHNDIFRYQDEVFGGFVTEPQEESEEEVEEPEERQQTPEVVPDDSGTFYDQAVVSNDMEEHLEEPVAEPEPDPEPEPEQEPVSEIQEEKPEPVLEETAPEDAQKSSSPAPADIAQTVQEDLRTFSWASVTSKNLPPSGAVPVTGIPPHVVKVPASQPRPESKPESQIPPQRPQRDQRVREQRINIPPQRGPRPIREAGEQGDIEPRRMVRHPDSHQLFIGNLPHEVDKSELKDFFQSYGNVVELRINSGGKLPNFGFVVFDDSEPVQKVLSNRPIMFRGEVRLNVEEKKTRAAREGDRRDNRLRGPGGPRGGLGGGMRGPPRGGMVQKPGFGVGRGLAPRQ
Shared flanks, not repeated: GGGAGUUCUACAGUCCGACGAUC … UGGAAUUCUCGGGUGUCAAGG
For `AAGUCCUGUGCUACACAUCGUAUGUACCGAAUCGGGAAAGGGAGGGUUUUUUUGGGAAAGUAUUAUGUUACGCCGUUCGGAUCUGCACUU`, the log2 enrichment was 1.3.
`CAAGUCCUGUGCUACACAUCGUAUGUACCGAAUCGGAAAAAAAGGUUUUUGGAGGAAAGUAUUAUGUUACGCCGUUCGGAUCUGCACUUC` gave a log2 enrichment of -1.95.
`UGGCCCUGGUGGCAUGCGGGGAGGAAGAGGUGGCCUCAUGGAUUGUGGUGGUCCCGGUGGAAUGUUCAGAGGUGGCCGUGGUGGAGACAG` gave a log2 enrichment of 2.19.
`CUGUGCUACACAUCGUAUGUACCGAAUCGGGGAAAAAAGGGAAAAAAGGGGAAAAAAGGGGAAAGUAUUAUGUUACGCCGUUCGGAUCUG` gave a log2 enrichment of -0.922.
With `UCAAGUCCUGUGCUACACAUCGUAUGUACCGAAUCGGAAAGGAAAGGGGAAAGGAAAGUAUUAUGUUACGCCGUUCGGAUCUGCACUUCC` the log2 enrichment was -1.49.
With `CACAGACAACACGCACCCACACAGACACAGAGGUAAGGGGUUGGGAUGGGGACAGGGUGCACAGCAGGGCGGGGUAGGACCCCAGCCCCU` the log2 enrichment was 0.00564.
`UCCUGUGCUACACAUCGUAUGUACCGAAUCAAAUUUUUAAAUUUUUUUAAAUUUUUAAAAAAGUAUUAUGUUACGCCGUUCGGAUCUGCA` has a log2 enrichment of -1.97.
With `UCCUGUGCUACACAUCGUAUGUACCGAAUCGGGGUUUUUUUGGGGAAAAAGGGGUGGGGAAAGUAUUAUGUUACGCCGUUCGGAUCUGCA` the log2 enrichment was 1.29.
For `CAAGUCCUGUGCUACACAUCGUAUGUACCGAAUCGGUGGAAAAAGGUUUUUUUGGAAAGUAUUAUGUUACGCCGUUCGGAUCUGCACUUC`, the log2 enrichment was -1.68.
With `AGUCCUGUGCUACACAUCGUAUGUACCGAAUCGGGUUUUUGGGUUUUUGGGAAAGGGAAAGUAUUAUGUUACGCCGUUCGGAUCUGCACU` the log2 enrichment was 0.29.
With `GUCCUGUGCUACACAUCGUAUGUACCGAAUCGGGUGGGUUUUUUUGGGUUUUUUUGGGAAAGUAUUAUGUUACGCCGUUCGGAUCUGCAC` the log2 enrichment was -0.149.
The log2 enrichment of `UGGCCCUGGUGGCAUGCGGGGAGGACGAGGUGGCCUCAUGGAUCGUGGUGGUCCCGGUGGAAUGUUCAGAGGUGGCCGUGGUGGAGACAG` is reported as 2.47.
`CUGUGCUACACAUCGUAUGUACCGAAUCGGGGUUUGGGGUUUUUUUGGGGUUUUUUUGGGGAAAGUAUUAUGUUACGCCGUUCGGAUCUG` has a log2 enrichment of 0.357.
`AAGUCCUGUGCUACACAUCGUAUGUACCGAAUCGGGUUUUGGUUUUGGGUUUUGGGAAAGUAUUAUGUUACGCCGUUCGGAUCUGCACUU` has a log2 enrichment of -1.29.

Series 4 — target: FOS, bZIP domain (human); technique: DHFR protein complementation; medium: yeast; relative to: wild-type JUN-FOS pair; direction: higher = stronger binding
Setting: single substitutions, most at no-binding floor
Starting sequence: JUN, bZIP domain (human); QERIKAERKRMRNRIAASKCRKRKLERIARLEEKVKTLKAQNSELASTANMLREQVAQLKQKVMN; partner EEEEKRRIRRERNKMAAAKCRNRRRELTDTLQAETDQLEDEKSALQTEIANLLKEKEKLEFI
For `V56Y`, the binding fitness was -1.35 natural log.
For `T37K`, the binding fitness was -0.023 natural log.
The binding fitness of `M51E` is reported as 0.019 natural log.
With `Q58R` the binding fitness was -0.131 natural log.
`S47L` has a binding fitness of -0.0198 natural log.
For `E32L`, the binding fitness was -0.0205 natural log.
`I28E` has a binding fitness of -0.0512 natural log.
`K39R` gave a binding fitness of 0.0798 natural log.
`A29E` has a binding fitness of -0.122 natural log.
`K36A` gave a binding fitness of 0.0792 natural log.
For `E54F`, the binding fitness was -0.385 natural log.
`E44G` has a binding fitness of -0.301 natural log.
`K36G` has a binding fitness of -0.228 natural log.
With `A40N` the binding fitness was -0.119 natural log.

For quick reference, copied from above (series 2):
For `PKPLKKLRFAIEG [D10A]`, “normalised enrichment score” read 0.131.
`PKPLKKLPFDIEG [R8P]`: “normalised enrichment score” 0.564.
For `PKPLKKLRFFIEG [D10F]`, “normalised enrichment score” read 0.637.
Under “normalised enrichment score”, `PKPCKKLRFDIEG [L4C]` is recorded as 0.41.
Under “normalised enrichment score”, `PKPLKKCRFDIEG [L7C]` is recorded as -0.0286.
For `PKPWKKLRFDIEG [L4W]`, “normalised enrichment score” read -0.202.
